# Measurements collected from several papers.
Compound,test,test system,conditions,quantity,value
C[C@]1(O)C[C@@](N)(c2ccc(-c3nc4n(c3-c3ccccc3)COc3ccncc3-4)cc2)C1,,"human, advanced or metastatic solid tumours","16 mg once daily, phase I dose escalation",patients with Hyperglycemia TEAE,33.3%
C[C@@H]1OC(=O)NN=C1c1ccc(-c2ccc(F)cc2)c(C(F)(F)F)c1,"phase I trial, measured: non-cardiac chest pain all grades",human patients,20 mg loading then 1 mg daily,patients with adverse event,0%
CNC(=O)c1cc(Oc2ccc(NC(=O)Nc3cc(C(C)(C)C)nn3-c3ccc4ncccc4c3)c(F)c2)ccn1,,"human, trial","oral, 150 mg twice daily, starting dose",patients with related serious Nausea AE,3%
C=CC(=O)Nc1cc(Nc2nccc(Nc3cc(Cl)c(F)cc3C(C)(C)O)n2)c(OC)cc1N1CC[C@@H](N(C)C)C1,,human patients,"oral, 400 mg, treatment-emergent adverse events",patients with anaemia,55%
COc1ncnn2ccc(-c3cnc4nc(C)n(Cc5nnc([C@@H](C)F)o5)c4c3)c12,,human,"oral, dose not given, grade 3",patients with nail discoloration,0%
Cn1cncc1-c1c(F)cncc1NC(=O)c1c(N)nn2cc(F)cnc12,,human patients,"oral, 220 mg once daily, 2 weeks on 1 week off",patients grade ≥3 Hyperkalemia,0%
O=C1Nc2cc3[nH]nc(-c4ccncc4)c3cc2CN1Cc1ccccc1,CTCAE v4.03,"human, relapsed or refractory advanced solid tumours","intravenous, 4.8 mg/kg, pooled schedules",patients with QTc prolongation,0%
COc1ccc(-c2c(-c3ccc(C#N)c(F)c3)nc(N3CCC(N)CC3)n(C)c2=O)cc1F,measured: respiratory failure,human patients,"oral, dose not given, dose escalation",patients with serious TEAE,0%
Cc1cn([C@H]2O[C@@H](CO[P@@](=O)(N[C@@H](C)C(=O)OC(C)C)Oc3ccccc3)[C@H](O)[C@H]2F)c(=O)[nH]c1=O,measured: grade 1/2,human,10 mg,patients with creatine kinase elevation,0%
